Measured values of several laboratories.
Protocols differ between the studies behind these lines. ± gives the spread as reported.
fur full length assumed: fur full length assumed (Acidithiobacillus ferrooxidans, UniProt B7J425)
rpl-10a: rpl-10a 1-216 (Caenorhabditis elegans, UniProt Q9N4I4)
UniProt Q9N4I4, sequence (whole entry, looked up): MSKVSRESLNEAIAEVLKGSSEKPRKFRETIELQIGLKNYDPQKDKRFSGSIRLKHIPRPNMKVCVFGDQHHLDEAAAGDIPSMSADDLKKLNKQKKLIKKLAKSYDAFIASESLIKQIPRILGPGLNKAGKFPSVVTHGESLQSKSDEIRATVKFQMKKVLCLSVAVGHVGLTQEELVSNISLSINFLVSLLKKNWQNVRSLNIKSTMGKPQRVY
leuO: leuO fragment (Escherichia coli)
B1: enzyme (Bacillus pumilus, UniProt A8FFI9); chain EARSIAWSVDEFFKNREGTFVIQEVKEKSPWVYNKKRAKERFAPQSTFKVANALIGLQTGAVRDEYDIKYWDGVKREIDNWNRDHTLGSGMRDSVVWYYQAMARDIGEERMNHWVKAIHYGNKDISGGIDQFWLSSTLRISPIEQVRFLKQLYEETLPFDLKNMRTVKRMMVQEEEKHATLYGKTGSGSDIGWYVGFIKHEHKTYILATNIKGTGIEAKDITYRILKKYHLMEASV
UniProt P75989, sequence (whole entry, looked up): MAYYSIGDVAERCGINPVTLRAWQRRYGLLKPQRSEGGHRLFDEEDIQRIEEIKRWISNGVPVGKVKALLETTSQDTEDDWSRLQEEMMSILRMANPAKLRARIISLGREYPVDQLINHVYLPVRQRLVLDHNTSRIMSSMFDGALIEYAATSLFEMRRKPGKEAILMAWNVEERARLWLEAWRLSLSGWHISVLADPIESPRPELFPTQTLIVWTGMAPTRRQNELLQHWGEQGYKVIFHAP
UniProt O60656, sequence (whole entry, looked up): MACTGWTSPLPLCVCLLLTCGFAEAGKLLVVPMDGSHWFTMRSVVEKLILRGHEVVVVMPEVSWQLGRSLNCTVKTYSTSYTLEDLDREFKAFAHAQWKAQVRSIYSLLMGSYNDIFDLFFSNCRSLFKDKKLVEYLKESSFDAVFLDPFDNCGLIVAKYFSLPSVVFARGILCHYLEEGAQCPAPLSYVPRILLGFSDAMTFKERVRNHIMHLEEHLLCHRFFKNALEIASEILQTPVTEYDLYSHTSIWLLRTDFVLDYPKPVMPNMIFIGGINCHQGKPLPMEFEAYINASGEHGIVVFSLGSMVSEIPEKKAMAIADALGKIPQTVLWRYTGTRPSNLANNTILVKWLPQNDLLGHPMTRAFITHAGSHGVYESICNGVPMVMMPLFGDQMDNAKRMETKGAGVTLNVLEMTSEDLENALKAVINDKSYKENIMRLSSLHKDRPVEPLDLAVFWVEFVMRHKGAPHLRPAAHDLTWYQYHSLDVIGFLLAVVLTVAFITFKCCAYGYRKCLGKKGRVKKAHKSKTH
UniProt F4JVI3, sequence (whole entry, looked up): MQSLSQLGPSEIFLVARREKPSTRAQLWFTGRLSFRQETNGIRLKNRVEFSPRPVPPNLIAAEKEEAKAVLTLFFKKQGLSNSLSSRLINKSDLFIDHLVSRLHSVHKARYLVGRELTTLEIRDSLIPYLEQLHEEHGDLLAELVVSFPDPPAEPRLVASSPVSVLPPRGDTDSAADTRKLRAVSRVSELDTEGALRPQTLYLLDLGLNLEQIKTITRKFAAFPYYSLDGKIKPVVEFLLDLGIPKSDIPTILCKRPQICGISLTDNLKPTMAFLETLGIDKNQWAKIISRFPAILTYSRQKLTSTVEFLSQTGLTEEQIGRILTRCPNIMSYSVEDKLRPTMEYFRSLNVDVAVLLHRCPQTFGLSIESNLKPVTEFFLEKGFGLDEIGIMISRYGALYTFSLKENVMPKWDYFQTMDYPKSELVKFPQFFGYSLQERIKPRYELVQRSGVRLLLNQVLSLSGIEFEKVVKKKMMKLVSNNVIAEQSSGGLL
UniProt P35222, sequence (whole entry, looked up): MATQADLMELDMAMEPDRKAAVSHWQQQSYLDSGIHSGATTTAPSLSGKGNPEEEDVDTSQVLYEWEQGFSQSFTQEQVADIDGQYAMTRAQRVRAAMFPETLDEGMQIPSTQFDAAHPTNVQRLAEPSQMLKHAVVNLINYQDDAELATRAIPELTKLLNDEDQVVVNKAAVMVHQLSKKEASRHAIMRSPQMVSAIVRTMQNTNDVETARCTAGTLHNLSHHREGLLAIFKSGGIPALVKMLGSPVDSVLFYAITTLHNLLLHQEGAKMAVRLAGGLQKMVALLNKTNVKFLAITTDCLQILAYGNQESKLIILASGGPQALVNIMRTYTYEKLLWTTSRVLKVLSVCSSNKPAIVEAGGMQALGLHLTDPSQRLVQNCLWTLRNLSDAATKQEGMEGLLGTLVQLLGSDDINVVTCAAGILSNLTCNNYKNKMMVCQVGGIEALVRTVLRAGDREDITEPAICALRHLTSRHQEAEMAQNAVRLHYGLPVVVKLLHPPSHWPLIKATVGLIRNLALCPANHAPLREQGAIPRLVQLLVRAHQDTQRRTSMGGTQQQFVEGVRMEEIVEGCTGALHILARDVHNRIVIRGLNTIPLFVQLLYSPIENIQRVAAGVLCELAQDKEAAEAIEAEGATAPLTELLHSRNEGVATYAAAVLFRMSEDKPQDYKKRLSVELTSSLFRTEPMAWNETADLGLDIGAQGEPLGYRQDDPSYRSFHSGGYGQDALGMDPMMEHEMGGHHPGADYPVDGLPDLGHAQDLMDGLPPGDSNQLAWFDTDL

`GTGTTTCACGGGCTCTACTCCTGTGGTTTGCGAAATATTCAATGGAATATACTGGTAACTATTTTTGGGTGTCAATAGATTTGTTAAGCTGGTCATATCCAGATATGACATGAATTTGGCATCTTTTTTGCTACATCTTCCACGCGGCCCTATTGCCCACTTATTTGTTCGTTTTATGACAATAATGTGTACTTATTGACATCTAGGGAGAGGCTTTTTGAAACTGCG (dsDNA)`: binding “binds” (fur full length assumed; EMSA; double-stranded DNA, one strand shown; supershift, with: Mn2+ 0.1 mM).
`GGGAGAGUAGCUACGACCUGUGAAAACAGGGAGUUGGGACUUUCAAAGCCUAACGGACCCCCACCCAGGGUCUUAAAUUUUUGGGGAGGCAAUUAUUGCCGCUUUGAAAUAAUGAUAUGAGCUGGUAUAAUGUAACCAAUCGUGUCAUUUGGAUUUAUUUCUAUUGUUCUAUUUUCCAG (ssRNA (Caenorhabditis elegans); 39 nt, deletion)` — result for binding: “binds” (rpl-10a; UV crosslinking).
For `DNA 1 CGAGGTATGGCACTGGCCGTCGTTTTCG / DNA 2 CGAAAACGACGGCCAGTGCCATAT (dsDNA; 4-nt 5' overhang, G-T mismatch)`, binding read “binds” (POLG/POLG2 26-1239; 26-485 del43-52 (Homo sapiens); cryo-EM; double-stranded DNA; with: dCTP).
`GTAGACTCTAAAAATACCCTTGGTACTTTATTGACGATCTCACAAAGATGCAATCTCAGTGAATTTTAATTTACTTATTCATCTTTTACAGAATCGATTC (dsDNA)`: binding “binds” (MTERF5 44-493 (Arabidopsis thaliana, UniProt F4JVI3); EMSA; double-stranded DNA, one strand shown).
For `TTGAAATGCATGCATTATTGTCTTTAAACAATTCAACACATCTTAATATATGTATAGGTTAATTGTATTAAACCAATGAATATATTTTTGCAGTGAATGTGATTATTGAATTAATTACGCCGTATTTTTTCTTTGTTTTTACCGATAACGGAAGTGTGCCGACGTA (dsDNA (Escherichia coli); blunt)`, binding read “binds” (leuO; DNase I footprinting; double-stranded DNA, one strand shown).
`ACGCAAGCGGTAACAAAGCGTACAAGATGTTCAGTCTCTTACAGGACGAAAAGATATAACCACATGATGATATTATAGTTATTCTTTGGCACCGTTATTGCTTGATGTGTCGTTGTTGCCGT (dsDNA)`: binding “binds” (fur full length assumed; EMSA; double-stranded DNA, one strand shown; supershift, with: Mn2+ 0.1 mM).
`GGGAGAGAAGGACAAGCGUUUCAGCGGAUCCAUCAGGUAGCUACGACCUGUGAAAACAGGGAGUUGGGACUUUCAAAGCCUAACGGACCCCCACCCAGGGUCUUAAAUUUUUGGGGAGGCAAUUAUUGCCGCUUUGAAAUAAUGAUACGAGCUGGUAUAAUGUAACCAAUCGUGUCAUUUGGAUUUAUUUCUAUUGUUCUAUUUUCCAGACUGAAGCACAUUCCACGCCCAAACAUGAAGG (ssRNA (Caenorhabditis elegans); 39 nt, deletion)`: binding “binds” (rpl-10a; UV crosslinking).
For `GCGGACGGACAGAGAGUGCAACCUGCCGUGCCGC (ssRNA; 2'-F pyrimidines, 5' thiol-C6)`, the Kd was 0.467 ± 0.094 µM (ITGA5/ITGB1 on cells (Homo sapiens); flow cytometry; RT112; apparent, no added Mg2+/Ca2+, not purified).
`ATGCATTAGCACTAATTGCAAAAAATTAATTTATCATTCTGTACACATATTTCGTACAAGTTTGCTATTGTTACTTCACTTAACATTGATTAACATTTTTAACAGAGGCGTAGCATGCATCAAAATTCAGTGACTTTAGATTCTGCGGGAGCAATCAC (dsDNA)`: binding “binds” (bluR 1-243 (Escherichia coli, UniProt P75989); EMSA; double-stranded DNA, one strand shown; MgCl2 1 mM).
Under binding, `CGAGTAAGCGCGGTATTTCGGCGCATGCTTTTTCTCCTTTGAATGGTGAACGCTCAGAACGAACGCCCAGTGATGCTTGGCGCTTCCTTTCCTTATGCGCCACGTGGTACAGCTGTGTATCACGCAATTGTCACCTTAACACTTTATACCGCGTTGGTCAACCGGTGTATCATCGCCTCGTACGGCCCAGTACAGCAACACCAGCATTACAGCAATGTCGTTCAAC (dsDNA)` is recorded as “binds” (galR full length assumed (Bifidobacterium breve, UniProt F9Y1U7); EMSA; double-stranded DNA, one strand shown).
For `GGGAUGACCUCAUAAAAUACCUCUUCAAAAUGCUUAAAUUCAUUUCACACAUUAAUUUUAUCUCAGUCUUGAAGCCAAUUCAGUAGGUGCAUUGGAAUCAAGCCUGGCUACCUGCAUGCUGUUCCUUUUCUUUUCUUCUUUUAGCCAUUUUGCUAAGAGACUCUAGAUC (ssRNA)`, binding read “no binding” (CTNNB1 full length assumed (Homo sapiens, UniProt P35222); EMSA).
For `GAGUUGAGUUGAGUUGAGUUGAGUUGAGUUGAGUUGAGUUGAGUUGAGUUGAGUU (ssRNA; single strand)`, the Kd was 0.2 ± 0.03 µM (mtrB full length assumed T30Q (Bacillus subtilis, UniProt P19466); filter binding; with: L-tryptophan 1 mM).
With `B1 (enzyme)` the kcat was 56 ± 2 s⁻¹ (CC1(C)S[C@@H]2[C@H](NC(=O)[C@H](N)c3ccccc3)C(=O)N2[C@H]1C(=O)O; steady-state kinetics; pH 7).
`GGGAGAACCCACAGAAGGACAAGCGUUUCAGCGGAUCCAUCAGGUAGCUACGACCUGUGAAAACAGGGAGUUGGGACUUUCAAAGC (ssRNA)` — result for binding: “binds weakly” (rpl-10a; UV crosslinking).
`GATCGATCGACACACACACACACACAGATCGATCGA (dsDNA; N6-methyl-dA at 12,14,16,18,20,22,24,26; blunt)`: binding “binds” (Pc fragment (Drosophila melanogaster); fluorescence polarization; double-stranded DNA, one strand shown).
`DNA 1 GGACGGCATTGGATCGAGGTTGAGTTGGTTGGACGGCTGCGAGGA / DNA 2 TCCTCGCAGCCGTCCAACCAACTCA / DNA 3 CCTCGATCCAATGCCGTCC (dsDNA; 1-nt gap, three strands, blunt)` — result for binding: “binds” (POLG/POLG2 26-1239; 26-485 (Homo sapiens); SAXS; double-stranded DNA).
`UGT1A9 (Homo sapiens, UniProt O60656)` gave a Vmax/Km of 1010 µL/min/mg (COc1ccccc1-c1cc(=O)c2ccc(O)cc2o1; steady-state kinetics; pH 7.4, 37 °C).
Under binding, `TGCTGCCTTGCGGTATGGCCATCATGGTTTCCTGCCGAAACTGGACCTTATGACAGGATATACCCACAATATGACATTATCATGAAACTAAAATGACAATTTTATGACAAAAGCCCAGCGACATATGTACCGCAATACACAGGATTTGCGGAGACCGCAGTGGTCTCCGCTACTCCAACCAGGCATGGAAGATCAGTGAATTACTGAAGTG (dsDNA)` is recorded as “binds” (fur full length assumed; EMSA; double-stranded DNA, one strand shown; supershift, with: Mn2+ 0.1 mM).
`CCTACTTAAGTAGGGAAGGTGCACAATGTACATCTTCTTTTAATTTCCCGGTATGAGATTTTATATTCACAGTATGAATATTTTATGTAATAAAATTCATGGTAATTATTATAACTAAAAGTTTCTTTAATAATAAAACGAATAACTTGCAGATTTGAAATGCAT (dsDNA (Escherichia coli); blunt)` — result for binding: “binds” (leuO; DNase I footprinting; double-stranded DNA, one strand shown).

A few entries again:
Under binding, `CGAGTAAGCGCGGTATTTCGGCGCATGCTTTTTCTCCTTTGAATGGTGAACGCTCAGAACGAACGCCCAGTGATGCTTGGCGCTTCCTTTCCTTATGCGCCACGTGGTACAGCTGTGTATCACGCAATTGTCACCTTAACACTTTATACCGCGTTGGTCAACCGGTGTATCATCGCCTCGTACGGCCCAGTACAGCAACACCAGCATTACAGCAATGTCGTTCAAC (dsDNA)` is recorded as “binds” (galR full length assumed (Bifidobacterium breve, UniProt F9Y1U7); EMSA; double-stranded DNA, one strand shown).
For `GGGAUGACCUCAUAAAAUACCUCUUCAAAAUGCUUAAAUUCAUUUCACACAUUAAUUUUAUCUCAGUCUUGAAGCCAAUUCAGUAGGUGCAUUGGAAUCAAGCCUGGCUACCUGCAUGCUGUUCCUUUUCUUUUCUUCUUUUAGCCAUUUUGCUAAGAGACUCUAGAUC (ssRNA)`, binding read “no binding” (CTNNB1 full length assumed (Homo sapiens, UniProt P35222); EMSA).
For `GAGUUGAGUUGAGUUGAGUUGAGUUGAGUUGAGUUGAGUUGAGUUGAGUUGAGUU (ssRNA; single strand)`, the Kd was 0.2 ± 0.03 µM (mtrB full length assumed T30Q (Bacillus subtilis, UniProt P19466); filter binding; with: L-tryptophan 1 mM).
